Measured values pooled from the literature.
“And” joins repeats or separate records; there may be more than shown. ± gives the spread as reported.
Sequence of UniProt P11388 (whole entry, looked up): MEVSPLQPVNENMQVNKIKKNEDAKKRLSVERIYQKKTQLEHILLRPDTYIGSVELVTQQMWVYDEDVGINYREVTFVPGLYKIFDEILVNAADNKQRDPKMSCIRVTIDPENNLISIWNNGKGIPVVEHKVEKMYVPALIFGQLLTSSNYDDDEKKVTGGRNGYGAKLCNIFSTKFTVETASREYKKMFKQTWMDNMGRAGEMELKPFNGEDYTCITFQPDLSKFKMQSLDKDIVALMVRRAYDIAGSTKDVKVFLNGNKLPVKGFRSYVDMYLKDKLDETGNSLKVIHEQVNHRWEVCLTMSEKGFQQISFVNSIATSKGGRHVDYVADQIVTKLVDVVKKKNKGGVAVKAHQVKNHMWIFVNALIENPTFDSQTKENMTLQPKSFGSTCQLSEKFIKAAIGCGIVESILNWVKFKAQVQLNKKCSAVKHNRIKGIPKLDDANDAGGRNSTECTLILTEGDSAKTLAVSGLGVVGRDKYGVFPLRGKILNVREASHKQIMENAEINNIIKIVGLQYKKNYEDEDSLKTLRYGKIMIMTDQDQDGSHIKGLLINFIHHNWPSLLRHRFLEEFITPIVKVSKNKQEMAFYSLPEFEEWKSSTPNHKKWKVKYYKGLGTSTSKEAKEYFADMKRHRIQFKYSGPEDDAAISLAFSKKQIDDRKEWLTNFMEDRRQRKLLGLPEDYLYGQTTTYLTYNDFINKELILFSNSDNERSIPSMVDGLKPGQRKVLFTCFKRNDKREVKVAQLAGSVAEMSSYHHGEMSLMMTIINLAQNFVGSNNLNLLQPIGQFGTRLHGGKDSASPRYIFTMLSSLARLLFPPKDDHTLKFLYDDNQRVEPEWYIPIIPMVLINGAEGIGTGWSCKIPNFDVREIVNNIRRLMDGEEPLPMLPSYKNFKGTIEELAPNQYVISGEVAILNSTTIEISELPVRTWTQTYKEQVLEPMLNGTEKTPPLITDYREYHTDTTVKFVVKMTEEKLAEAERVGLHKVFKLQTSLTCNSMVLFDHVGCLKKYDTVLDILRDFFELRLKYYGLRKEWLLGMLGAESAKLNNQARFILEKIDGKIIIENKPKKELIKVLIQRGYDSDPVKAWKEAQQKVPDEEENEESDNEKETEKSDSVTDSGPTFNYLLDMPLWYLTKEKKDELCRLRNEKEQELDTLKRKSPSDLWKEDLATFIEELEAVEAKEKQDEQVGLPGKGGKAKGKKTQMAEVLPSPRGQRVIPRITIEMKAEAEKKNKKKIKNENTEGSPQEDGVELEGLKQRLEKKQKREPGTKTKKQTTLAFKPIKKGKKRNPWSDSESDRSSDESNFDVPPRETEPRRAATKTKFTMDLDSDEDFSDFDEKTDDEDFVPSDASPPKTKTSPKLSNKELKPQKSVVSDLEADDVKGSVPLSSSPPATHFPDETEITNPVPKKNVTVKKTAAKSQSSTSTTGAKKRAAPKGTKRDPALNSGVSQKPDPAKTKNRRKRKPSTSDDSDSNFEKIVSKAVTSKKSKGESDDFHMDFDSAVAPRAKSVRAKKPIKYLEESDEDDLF
Sequence of UniProt P02769 (whole entry, looked up): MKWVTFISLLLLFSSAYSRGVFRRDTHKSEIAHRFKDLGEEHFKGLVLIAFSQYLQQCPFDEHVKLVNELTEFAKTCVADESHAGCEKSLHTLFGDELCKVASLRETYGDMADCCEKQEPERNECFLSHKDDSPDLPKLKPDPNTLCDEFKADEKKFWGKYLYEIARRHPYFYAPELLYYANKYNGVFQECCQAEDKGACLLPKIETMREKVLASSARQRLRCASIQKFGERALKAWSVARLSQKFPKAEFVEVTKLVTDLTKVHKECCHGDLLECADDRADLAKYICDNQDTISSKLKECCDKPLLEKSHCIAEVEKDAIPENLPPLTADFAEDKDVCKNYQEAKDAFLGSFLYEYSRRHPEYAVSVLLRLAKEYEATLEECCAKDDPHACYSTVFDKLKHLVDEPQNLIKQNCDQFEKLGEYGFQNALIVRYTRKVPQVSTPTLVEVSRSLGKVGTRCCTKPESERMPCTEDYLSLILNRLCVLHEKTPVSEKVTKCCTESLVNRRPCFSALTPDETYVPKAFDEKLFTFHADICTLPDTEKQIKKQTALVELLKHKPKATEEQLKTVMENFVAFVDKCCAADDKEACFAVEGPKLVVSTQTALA

SMILES | tested on | assay | system | conditions | how to read | quantity | value
CC1COc2ccccc2N1C(=O)C(Cl)Cl (stereo not drawn) | carboxylesterase | – | male rhesus monkey liver cytosol | 5 µM, 30 min, pH 7.4, without GSH | – | remaining compound | 78 ± 1%
N#CCC1CCN(c2nc(Nc3ccc(N4CCC(O)CC4)cc3)c3c(=O)[nH]ncc3n2)CC1 | – | Olink multiplex, refers to: CDCP1 | human, serum | 40 mg, day 29, unit not given | baseline: placebo | serum level change | -1.33
CO/N=C(\C(=O)N[C@@H]1C(=O)N2C(C(=O)O)=C(COC(C)=O)CS[C@H]12)c1csc(N)n1 | Salmonella enterica serovar Uganda | broth microdilution | clinical isolate RKI-No 206/14 | – | – | MIC | > 16 µg/mL
O=C(Nc1nc2cccc(-c3ccc(CN4CCS(=O)(=O)CC4)cc3)n2n1)C1CC1 | – | refers to: injury or procedural complication | rheumatoid arthritis patients | oral, 200 mg once daily, 4 weeks, any relatedness | – | patients with adverse event | 0%
COC(=O)Nc1c(N)nc(-c2nn(Cc3ccccc3F)c3ncc(F)cc23)nc1N | – | – | healthy white men | dose not given, day 13, 312 h, LS mean difference, added: sildenafil 25 mg | baseline: placebo | seated HR maximum increase | -0.07 bpm
Fc1ccccc1Cc1nc(-c2nc(C(F)(F)F)n[nH]2)cn2ccnc12 | – | – | healthy human subjects, both sexes | oral, 10 mg, fasted | – | subjects with reproductive-breast TEAEs | 0%
COc1cc([C@@H]2c3cc4c(cc3[C@@H](O[C@@H]3O[C@@H]5CO[C@@H](C)O[C@H]5[C@H](O)[C@H]3O)[C@H]3COC(=O)[C@H]23)OCO4)cc(OC)c1O | DNA topoisomerase 2-alpha (TOP2A, Homo sapiens, UniProt P11388) | DNA relaxation | – | 10 µM | – | mean relaxed DNA | 52.9% and 77.5% and 99.8%
CCOc1ccc(-c2nc3ccc(-c4nc5ccc(N6CCN(C)CC6)cc5[nH]4)cc3[nH]2)cc1 | Albumin (ALB, Bos taurus, UniProt P02769) | – | PBS | 1 µM, 1 h, added: 25 mg/mL albumin | – | fluorescence quantum yield | 0.115 ± 0.003
C[C@H]1O[C@@H](O[C@H]2[C@@H](O)C[C@H](O[C@H]3[C@@H](O)C[C@H](O[C@H]4CC[C@@]5(C)[C@H](CC[C@@H]6[C@@H]5CC[C@]5(C)[C@@H](C7=CC(=O)OC7)CC[C@]65O)C4)O[C@@H]3C)O[C@@H]2C)C[C@H](O)[C@@H]1O | A549 | cell growth or viability, resazurin | – | 72 h | – | CC50 | 20 nM
[H]/N=C(/N)N/C(=N/[H])NCCc1ccccc1 | primary human hepatocytes | refers to: DNA | – | 4 h | – | CC50 | > 100000 nM
CCn1c(=O)c(-c2cc(NC(=O)Nc3ccccc3)c(F)cc2Br)cc2cnc(NC)cc21 | – | refers to: injury and poisoning | healthy, matched to moderate impairment | 50 mg single dose | – | patients with grade 3+ TEAE | 0%
COC(=O)Nc1c(N)nc(-c2nn(Cc3ccccc3F)c3ncc(F)cc23)nc1N | – | – | healthy male humans, plasma | oral, 10 mg once daily, phase I DDI study, added: sildenafil 100 mg | – | AUC(0-24) at steady state | 6770 ng·h/mL

Excerpt of the above:
SMILES | tested on | assay | system | conditions | how to read | quantity | value
CCn1c(=O)c(-c2cc(NC(=O)Nc3ccccc3)c(F)cc2Br)cc2cnc(NC)cc21 | – | refers to: injury and poisoning | healthy, matched to moderate impairment | 50 mg single dose | – | patients with grade 3+ TEAE | 0%
CO/N=C(\C(=O)N[C@@H]1C(=O)N2C(C(=O)O)=C(COC(C)=O)CS[C@H]12)c1csc(N)n1 | Salmonella enterica serovar Uganda | broth microdilution | clinical isolate RKI-No 206/14 | – | – | MIC | > 16 µg/mL
